Measured values gathered from unrelated publications.
Compare with care: the assays were run in different laboratories.
TDP1: Tyrosyl-DNA phosphodiesterase 1 (TDP1, Homo sapiens, UniProt Q9NUW8)
Sequence of UniProt Q9NUW8 (whole entry, looked up): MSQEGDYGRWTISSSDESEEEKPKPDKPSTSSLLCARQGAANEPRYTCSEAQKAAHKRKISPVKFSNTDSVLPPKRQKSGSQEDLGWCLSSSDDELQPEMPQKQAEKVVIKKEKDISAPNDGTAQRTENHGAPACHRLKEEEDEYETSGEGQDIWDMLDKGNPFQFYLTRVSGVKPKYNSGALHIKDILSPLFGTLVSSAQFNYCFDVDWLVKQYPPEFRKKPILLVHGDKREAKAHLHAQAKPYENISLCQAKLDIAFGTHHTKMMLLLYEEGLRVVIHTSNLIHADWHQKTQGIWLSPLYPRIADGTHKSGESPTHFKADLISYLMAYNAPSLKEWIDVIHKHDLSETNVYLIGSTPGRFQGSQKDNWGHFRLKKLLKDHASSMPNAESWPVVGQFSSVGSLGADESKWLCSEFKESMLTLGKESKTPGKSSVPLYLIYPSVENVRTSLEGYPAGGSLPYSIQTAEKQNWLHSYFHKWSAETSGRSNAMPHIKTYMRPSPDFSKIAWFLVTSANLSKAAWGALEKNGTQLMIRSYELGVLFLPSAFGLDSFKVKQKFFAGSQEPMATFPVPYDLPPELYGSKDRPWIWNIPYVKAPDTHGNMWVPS

The MIC of `CNC(C)C1CCC(N)C(OC2C(N)CC(N)C(OC3OCC(C)(O)C(NC)C3O)C2O)O1` (stereo not drawn) is reported as 1 µM (Enterococcus faecalis; microbial growth, broth dilution; 29212).
`CCCC/C=C/C(=O)N[C@@H](Cc1cc(F)cc(F)c1)C(=O)N[C@H]1COC(=O)[C@@H]2CCCN2C(=O)[C@H](C)NC(=O)[C@@H]2C[C@@H](C)CCN2C(=O)[C@@H]2CCCN2C1=O` has an MIC of 0.003 µg/mL (Enterococcus faecalis; microbial growth, broth dilution).
`CCCCCCCCCCn1cc[n+](CCCCCCCCOc2cc(OCCCCCCCC[n+]3ccn(CCCCCCCCCC)c3)cc(OCCCCCCCC[n+]3ccn(CCCCCCCCCC)c3)c2)c1.[Br-].[Br-].[Br-]` gave an MIC of 8 µM (Enterococcus faecalis; OG1RF).
For `CCCC/C=C/C(=O)N[C@@H](Cc1cc(F)cc(F)c1)C(=O)N[C@H]1COC(=O)[C@@H]2CCCN2C(=O)[C@H](C)NC(=O)[C@@H]2C[C@@H](C(C)C)CCN2C(=O)[C@@H]2CCCN2C1=O`, the MIC was 0.098 µg/mL (Enterococcus faecalis; microbial growth, broth dilution).
`CCCCCCCCCCn1cc[n+](CCCCCCCCCCOc2cc(OCCCCCCCCCC[n+]3ccn(CCCCCCCCCC)c3)cc(OCCCCCCCCCC[n+]3ccn(CCCCCCCCCC)c3)c2)c1.[Br-].[Br-].[Br-]` gave an MIC of 32 µM (Enterococcus faecalis; OG1RF).
`O=C(O)c1ccc(Nc2c(-c3ccccc3)nc3ccc(CON=Cc4c(C=Cc5ccoc5)oc5ccc(O)cc45)cn23)cc1` (mixture of isomers) gave an inhibition of 47.9% (TDP1; enzyme activity, inhibitor; 100 µM, unpurified compound).
`CCCCCCCC[N+](C)(C)CCCCCCOc1cc(OCCCCCC[N+](C)(C)CCCCCCCC)cc(OCCCCCC[N+](C)(C)CCCCCCCC)c1.[Br-].[Br-].[Br-]` has an MIC of 1 µM (Enterococcus faecalis; OG1RF).
`CN[C@H](CC(C)C)C(=O)N[C@H]1C(=O)N[C@@H](CC(N)=O)C(=O)N[C@H]2C(=O)N[C@H]3C(=O)N[C@H](C(=O)N[C@H](C(=O)O)c4cc(O)cc(O)c4-c4cc3ccc4O)[C@H](O)c3ccc(c(Cl)c3)Oc3cc2cc(c3O[C@@H]2O[C@H](CO)[C@@H](O)[C@H](O)[C@H]2O[C@H]2C[C@](C)(NCc3ccc(-c4ccc(Cl)cc4)cc3)[C@H](O)[C@H](C)O2)Oc2ccc(cc2Cl)[C@H]1O` has an MIC of 10 µg/mL (Enterococcus faecalis; BM4166, VanA vancomycin-resistant; with: lipoteichoic acid 100 µg/mL).
For `O=C(O)c1ccc(Nc2c(-c3ccc(CON=Cc4cccc5[nH]ccc45)cc3)nc3cc(-c4ccccc4)ccn23)cc1`, the inhibition was 17.2% (TDP1; enzyme activity, inhibitor; 100 µM, unpurified compound).
For `CCCC/C=C/C(=O)N[C@@H](Cc1cc(F)cc(F)c1)C(=O)N[C@H]1COC(=O)[C@@H]2CCCN2C(=O)[C@H](C)NC(=O)[C@@H]2CCCCN2C(=O)[C@@H]2CCCN2C1=O`, the MIC was 0.015 µg/mL (Enterococcus faecalis; microbial growth, broth dilution).
`CCNC(=S)NN=Cc1c2ccccc2cc2ccccc12.Cc1ccc(C(C)C)cc1.[Cl-].[Cl-].[Ru+2]` has an MIC of 20 µM (Enterococcus faecalis; 24 h, 37.0 °C).
With `CN[C@H](CC(C)C)C(=O)N[C@H]1C(=O)N[C@@H](CC(N)=O)C(=O)N[C@H]2C(=O)N[C@H]3C(=O)N[C@H](C(=O)N[C@H](C(=O)O)c4cc(O)cc(O)c4-c4cc3ccc4O)[C@H](O)c3ccc(c(Cl)c3)Oc3cc2cc(c3O[C@@H]2O[C@H](CO)[C@@H](O)[C@H](O)[C@H]2O[C@H]2C[C@](C)(N)[C@H](O)[C@H](C)O2)Oc2ccc(cc2Cl)[C@H]1O` the MIC was < 1 µM (Enterococcus faecalis; microbial growth, broth dilution; 29212).
